Results collected from several papers.
Each line is one published result; not all experiments were run side by side.
Chain of UniProt P53350 (whole entry, looked up): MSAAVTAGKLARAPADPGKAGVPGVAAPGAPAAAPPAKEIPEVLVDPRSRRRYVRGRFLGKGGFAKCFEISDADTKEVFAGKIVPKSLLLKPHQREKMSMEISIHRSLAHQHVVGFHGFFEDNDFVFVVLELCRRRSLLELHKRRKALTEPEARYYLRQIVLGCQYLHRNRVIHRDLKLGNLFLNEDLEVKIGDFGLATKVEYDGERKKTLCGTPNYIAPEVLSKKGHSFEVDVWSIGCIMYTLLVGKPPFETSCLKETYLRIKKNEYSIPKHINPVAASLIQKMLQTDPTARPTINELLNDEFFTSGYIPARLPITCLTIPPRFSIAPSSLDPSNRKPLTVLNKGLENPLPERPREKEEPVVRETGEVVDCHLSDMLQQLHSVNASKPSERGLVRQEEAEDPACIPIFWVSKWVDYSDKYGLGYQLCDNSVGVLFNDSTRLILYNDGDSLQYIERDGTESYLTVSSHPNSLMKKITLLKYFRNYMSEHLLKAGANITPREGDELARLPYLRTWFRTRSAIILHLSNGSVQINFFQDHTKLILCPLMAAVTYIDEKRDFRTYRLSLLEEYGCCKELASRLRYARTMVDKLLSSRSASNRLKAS
Chain of UniProt P49286 (whole entry, looked up): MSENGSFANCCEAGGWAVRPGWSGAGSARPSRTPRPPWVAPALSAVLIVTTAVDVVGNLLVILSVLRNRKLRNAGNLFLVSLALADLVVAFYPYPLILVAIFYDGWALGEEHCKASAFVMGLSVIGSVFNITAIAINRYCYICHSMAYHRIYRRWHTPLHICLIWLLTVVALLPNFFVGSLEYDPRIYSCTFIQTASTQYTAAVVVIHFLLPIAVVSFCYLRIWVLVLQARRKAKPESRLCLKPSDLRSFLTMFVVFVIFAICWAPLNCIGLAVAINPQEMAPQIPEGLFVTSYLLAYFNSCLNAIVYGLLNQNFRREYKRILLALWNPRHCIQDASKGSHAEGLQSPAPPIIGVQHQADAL
Chain of UniProt P19801 (whole entry, looked up): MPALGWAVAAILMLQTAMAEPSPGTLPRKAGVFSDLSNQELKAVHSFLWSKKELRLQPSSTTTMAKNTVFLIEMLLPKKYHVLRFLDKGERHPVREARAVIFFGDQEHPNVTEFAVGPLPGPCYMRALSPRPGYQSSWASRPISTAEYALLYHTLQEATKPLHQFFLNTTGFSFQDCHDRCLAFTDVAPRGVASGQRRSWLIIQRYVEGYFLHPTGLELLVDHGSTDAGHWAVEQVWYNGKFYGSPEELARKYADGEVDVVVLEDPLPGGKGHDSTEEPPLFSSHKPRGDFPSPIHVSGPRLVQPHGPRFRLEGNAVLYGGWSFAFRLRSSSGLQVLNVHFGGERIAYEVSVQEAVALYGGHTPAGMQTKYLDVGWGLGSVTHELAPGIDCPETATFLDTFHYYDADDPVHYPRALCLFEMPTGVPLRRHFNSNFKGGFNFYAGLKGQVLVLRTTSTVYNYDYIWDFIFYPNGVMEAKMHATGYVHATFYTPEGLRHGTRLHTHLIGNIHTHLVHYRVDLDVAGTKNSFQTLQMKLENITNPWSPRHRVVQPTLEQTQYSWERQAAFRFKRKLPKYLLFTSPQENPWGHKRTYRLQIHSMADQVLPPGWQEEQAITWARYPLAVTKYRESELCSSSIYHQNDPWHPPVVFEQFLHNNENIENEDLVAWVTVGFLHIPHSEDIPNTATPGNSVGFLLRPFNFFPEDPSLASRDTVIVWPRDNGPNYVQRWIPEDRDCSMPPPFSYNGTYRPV
Chain of UniProt P49137 (whole entry, looked up): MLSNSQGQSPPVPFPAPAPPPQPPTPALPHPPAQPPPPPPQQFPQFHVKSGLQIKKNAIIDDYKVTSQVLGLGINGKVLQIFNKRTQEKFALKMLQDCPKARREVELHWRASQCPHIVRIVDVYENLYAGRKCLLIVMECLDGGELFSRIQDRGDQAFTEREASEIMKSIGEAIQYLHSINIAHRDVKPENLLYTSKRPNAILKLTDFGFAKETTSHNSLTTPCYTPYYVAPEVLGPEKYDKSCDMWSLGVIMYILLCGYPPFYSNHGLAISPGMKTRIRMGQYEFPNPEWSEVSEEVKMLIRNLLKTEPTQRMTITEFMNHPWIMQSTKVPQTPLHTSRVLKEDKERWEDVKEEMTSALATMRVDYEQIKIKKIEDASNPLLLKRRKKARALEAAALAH
Chain of UniProt Q9Y616 (whole entry, looked up): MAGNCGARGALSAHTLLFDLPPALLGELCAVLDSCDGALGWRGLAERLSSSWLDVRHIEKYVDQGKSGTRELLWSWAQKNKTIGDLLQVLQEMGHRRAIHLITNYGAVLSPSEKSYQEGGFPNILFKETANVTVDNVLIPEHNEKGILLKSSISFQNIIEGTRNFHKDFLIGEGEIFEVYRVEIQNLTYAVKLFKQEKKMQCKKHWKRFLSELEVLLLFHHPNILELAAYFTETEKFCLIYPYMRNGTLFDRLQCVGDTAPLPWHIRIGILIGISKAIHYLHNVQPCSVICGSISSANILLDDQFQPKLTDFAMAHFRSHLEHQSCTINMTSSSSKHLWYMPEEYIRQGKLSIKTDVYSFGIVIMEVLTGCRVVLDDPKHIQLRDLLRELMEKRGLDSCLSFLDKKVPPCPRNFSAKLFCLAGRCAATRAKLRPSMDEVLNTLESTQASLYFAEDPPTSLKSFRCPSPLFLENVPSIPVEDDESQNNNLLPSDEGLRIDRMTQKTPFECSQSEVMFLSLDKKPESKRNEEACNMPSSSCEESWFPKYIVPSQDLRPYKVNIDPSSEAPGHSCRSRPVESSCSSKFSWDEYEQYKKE
Chain of UniProt Q15835 (whole entry, looked up): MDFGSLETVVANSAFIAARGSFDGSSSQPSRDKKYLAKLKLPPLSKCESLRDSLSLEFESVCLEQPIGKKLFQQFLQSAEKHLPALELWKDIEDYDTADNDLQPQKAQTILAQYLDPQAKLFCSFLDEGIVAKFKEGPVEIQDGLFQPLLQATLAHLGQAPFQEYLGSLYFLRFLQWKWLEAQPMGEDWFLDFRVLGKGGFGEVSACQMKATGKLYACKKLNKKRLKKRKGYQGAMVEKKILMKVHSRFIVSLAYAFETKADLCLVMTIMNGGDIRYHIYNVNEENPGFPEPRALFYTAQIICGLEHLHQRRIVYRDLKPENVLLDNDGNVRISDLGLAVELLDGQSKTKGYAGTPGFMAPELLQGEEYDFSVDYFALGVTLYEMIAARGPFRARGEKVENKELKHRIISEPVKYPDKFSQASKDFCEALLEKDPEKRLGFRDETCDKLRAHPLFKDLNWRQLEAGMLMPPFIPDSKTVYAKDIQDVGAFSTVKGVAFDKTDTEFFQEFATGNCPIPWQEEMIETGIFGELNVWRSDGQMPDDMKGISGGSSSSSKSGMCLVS
Chain of UniProt P27037 (whole entry, looked up): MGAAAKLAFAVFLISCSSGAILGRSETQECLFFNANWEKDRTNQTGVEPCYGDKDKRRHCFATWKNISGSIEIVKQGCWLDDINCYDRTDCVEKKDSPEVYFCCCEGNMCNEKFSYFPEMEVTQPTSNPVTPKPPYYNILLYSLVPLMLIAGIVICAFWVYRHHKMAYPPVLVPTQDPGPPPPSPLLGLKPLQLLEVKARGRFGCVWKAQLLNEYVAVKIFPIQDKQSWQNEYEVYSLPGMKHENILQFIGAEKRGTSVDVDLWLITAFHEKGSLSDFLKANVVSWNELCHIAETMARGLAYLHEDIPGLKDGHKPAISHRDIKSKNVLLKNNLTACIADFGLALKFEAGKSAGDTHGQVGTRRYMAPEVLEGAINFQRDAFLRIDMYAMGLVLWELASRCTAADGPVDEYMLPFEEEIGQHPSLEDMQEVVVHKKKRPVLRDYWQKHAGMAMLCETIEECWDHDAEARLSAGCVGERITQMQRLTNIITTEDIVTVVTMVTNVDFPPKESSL
Chain of UniProt P57059 (whole entry, looked up): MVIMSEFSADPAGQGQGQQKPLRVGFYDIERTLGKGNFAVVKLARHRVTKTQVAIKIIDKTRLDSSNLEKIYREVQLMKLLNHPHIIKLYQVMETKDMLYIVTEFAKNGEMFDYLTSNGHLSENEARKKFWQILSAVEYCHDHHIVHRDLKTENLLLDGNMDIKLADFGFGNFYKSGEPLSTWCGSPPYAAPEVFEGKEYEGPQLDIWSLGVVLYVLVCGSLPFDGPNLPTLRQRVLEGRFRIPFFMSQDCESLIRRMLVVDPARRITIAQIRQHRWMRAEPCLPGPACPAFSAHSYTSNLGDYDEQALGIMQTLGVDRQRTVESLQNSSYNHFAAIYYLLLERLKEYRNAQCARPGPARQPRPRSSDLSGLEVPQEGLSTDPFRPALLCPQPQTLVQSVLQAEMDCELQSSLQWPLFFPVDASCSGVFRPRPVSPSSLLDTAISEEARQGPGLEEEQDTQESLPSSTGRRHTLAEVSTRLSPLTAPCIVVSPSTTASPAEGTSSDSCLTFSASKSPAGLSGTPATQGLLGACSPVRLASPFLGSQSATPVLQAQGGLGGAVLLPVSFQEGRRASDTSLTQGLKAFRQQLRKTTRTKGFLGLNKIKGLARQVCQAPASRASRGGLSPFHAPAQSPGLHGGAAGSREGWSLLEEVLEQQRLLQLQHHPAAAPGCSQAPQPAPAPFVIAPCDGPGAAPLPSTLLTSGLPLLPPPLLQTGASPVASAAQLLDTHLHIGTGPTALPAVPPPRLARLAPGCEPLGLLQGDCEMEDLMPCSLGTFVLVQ
Chain of UniProt Q10QA5 (whole entry, unmodified, looked up): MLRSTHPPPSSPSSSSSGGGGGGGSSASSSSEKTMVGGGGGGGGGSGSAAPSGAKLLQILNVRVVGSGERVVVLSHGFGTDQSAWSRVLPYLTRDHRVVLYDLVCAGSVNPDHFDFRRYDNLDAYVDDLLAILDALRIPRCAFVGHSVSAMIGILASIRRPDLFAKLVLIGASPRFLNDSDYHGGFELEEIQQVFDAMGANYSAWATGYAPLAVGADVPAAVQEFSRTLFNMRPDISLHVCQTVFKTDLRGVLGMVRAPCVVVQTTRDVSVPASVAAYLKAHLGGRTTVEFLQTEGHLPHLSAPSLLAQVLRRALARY

Structure (SMILES) | tested on | assay | setting | endpoint | result
CN(C)c1nccc(-c2cnn3ncccc23)n1 | Serine/threonine-protein kinase SIK1 (SIK1, Homo sapiens, UniProt P57059) | binding | 1 µM | remaining binding | 100%
CNc1ncc2c(/C=C/C(=O)N3CCC(OC)CC3)nn(Cc3cccc(C(F)(F)F)c3)c2n1 | Activin receptor type-2A (ACVR2A, Homo sapiens, UniProt P27037) | enzyme activity, inhibitor, radiometric | 1 µM | remaining activity | 94%
C=CC(=O)N1CCC(COCC(=O)N2CCN(c3nc(-c4cnc(N)nc4C(F)F)nc(N4CCOC[C@@H]4C)n3)CC2)CC1 | MAP kinase-activated protein kinase 2 (MAPKAPK2, Homo sapiens, UniProt P49137) | binding, competition with immobilised ligand | 1 µM | remaining binding | 90%
CC(=NNC(=O)c1ccccc1Br)c1ccc(Nc2nnc(-c3ccc(Cl)cc3)c3ccccc23)cc1 | HepG2 | cell growth or viability, MTT | 10 µM, 24 h | viability | 4.5%
CC(=O)/C=C/C=C(C)/C=C/C1=C(C)CC(O)CC1(C)C (stereo in doubt) | D14 (Oryza sativa, UniProt Q10QA5) | thermal stability, DSF | 50 µM | ΔTm | 6.92 °C
COc1cc(-c2cncc3c2CN(C)Cc2cc(N4CCNCC4)ccc2-3)cc(OC)c1OC | Rhodopsin kinase GRK1 (GRK1, Homo sapiens, UniProt Q15835) | enzyme activity, inhibitor | 1 µM | remaining activity | 94%
Cc1cc([C@@H](C)Nc2ccccc2C(=O)O)c2nc(N3CCC(F)(F)CC3)c(C#N)c(=O)n2c1 | Serine/threonine-protein kinase PLK1 (PLK1, Homo sapiens, UniProt P53350) | binding, competition with immobilised ligand | 10 µM | remaining binding | 100%
CCCN(O)N=Nc1ccc(S(=O)(=O)Nc2nccs2)cc1 |  | DPPH scavenging, absorbance | 60 µg/mL | inhibition | 11.4%
NC/C(=C\F)COc1cccc(Cn2c(=S)[nH]c(=O)c3[nH]cnc32)c1 | Diamine oxidase [copper-containing] (AOC1, Homo sapiens, UniProt P19801) | enzyme activity, inhibitor | 3 µM | inhibition | 9.78%
CCCCC(=O)Nc1ccc(-c2ccc3ncn(CCC)c(=O)c3c2)cn1 | Phosphatidylinositol 4,5-bisphosphate 3-kinase catalytic subunit alpha isoform (PIK3CA, Homo sapiens, UniProt P42336, I800L) | binding, competition with immobilised ligand | 0.5 µM | remaining binding | 66%
C1=C/COCc2cc(ccc2OCCN2CCCC2)Nc2nccc(n2)-c2cccc(c2)COC/1 | Interleukin-1 receptor-associated kinase 3 (IRAK3, Homo sapiens, UniProt Q9Y616) | binding | 0.1 µM | remaining binding | 12%
CN(O)N=Nc1ccc(S(=O)(=O)Nc2nccs2)cc1 |  | DPPH scavenging, absorbance | 20 µg/mL | inhibition | 3.98%
Cc1cc2c(cc1N1C(=O)c3cccc4c(Cl)ccc(c34)C1=O)n(C)c(=O)n2C | Transcription initiation factor TFIID subunit 1, BD1 (TAF1, Homo sapiens, UniProt P21675) | thermal stability, DSF | 10 µM | ΔTm | 0.3 °C
COc1ccc2[nH]cc(CCNC(C)=O)c2c1I | Melatonin receptor type 1B (MTNR1B, Homo sapiens, UniProt P49286) | GTPγS binding, agonist, radiometric | cell membranes | Emax | 66%

A few entries again:
Structure (SMILES) | tested on | assay | setting | endpoint | result
CCCN(O)N=Nc1ccc(S(=O)(=O)Nc2nccs2)cc1 |  | DPPH scavenging, absorbance | 60 µg/mL | inhibition | 11.4%
CN(C)c1nccc(-c2cnn3ncccc23)n1 | Serine/threonine-protein kinase SIK1 (SIK1, Homo sapiens, UniProt P57059) | binding | 1 µM | remaining binding | 100%
